Measurements pooled from the literature.
Parts stem from different laboratories: compare values within a part only. Positions count from the first letter of the parent shown.

Block 1
Target: CCND2, cyclin fold, Cln2 fusion (human)
Technique: yeast growth competition, sequencing
Sample: yeast
Setting: weak parent motif
Baseline: not given
Direction: higher = stronger binding
Parent: SCAPER docking peptide (human); SNARRSLNFGGST; partner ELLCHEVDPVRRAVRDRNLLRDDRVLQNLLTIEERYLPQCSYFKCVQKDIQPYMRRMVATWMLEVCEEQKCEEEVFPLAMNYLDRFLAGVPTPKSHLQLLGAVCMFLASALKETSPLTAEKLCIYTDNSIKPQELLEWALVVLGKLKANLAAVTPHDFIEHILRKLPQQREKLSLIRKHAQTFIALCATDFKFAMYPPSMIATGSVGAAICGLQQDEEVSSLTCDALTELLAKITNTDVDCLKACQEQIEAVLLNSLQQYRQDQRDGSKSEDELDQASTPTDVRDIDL
Change	normalised enrichment score
SNAWRSLNFGGST [R4W]	0.0508
SNARRSLNFGGSR [T13R]	0.479
SNARRSLVFGGST [N8V]	0.418
SNSRRSLNFGGST [A3S]	0.584
SNARRSLNFGGSP [T13P]	0.717
SNARRSCNFGGST [L7C]	0.26
SNARRELNFGGST [S6E]	0.18
SNFRRSLNFGGST [A3F]	0.0859

Block 2
Target: RING finger protein unkempt homolog, zinc fingers 1-6, GST-SBP tag (UNK, Homo sapiens, UniProt Q9C0B0, residues 30-357)
Chain of UniProt Q9C0B0 (30-357, looked up): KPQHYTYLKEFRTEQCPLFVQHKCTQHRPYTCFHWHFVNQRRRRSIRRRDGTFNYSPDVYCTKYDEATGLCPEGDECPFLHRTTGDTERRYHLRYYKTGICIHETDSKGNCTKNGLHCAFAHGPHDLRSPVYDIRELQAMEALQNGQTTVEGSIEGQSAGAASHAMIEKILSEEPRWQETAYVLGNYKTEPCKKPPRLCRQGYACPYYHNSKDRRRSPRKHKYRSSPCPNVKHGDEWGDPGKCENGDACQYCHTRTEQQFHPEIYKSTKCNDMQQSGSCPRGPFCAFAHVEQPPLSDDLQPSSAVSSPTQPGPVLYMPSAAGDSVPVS
Technique: RNA Bind-n-Seq
Molecule type: RNA
Sample: in vitro
Concentration: not given
Setting: RNA with constant flanks, human and mouse sites, ends assumed
Baseline: input RNA pool
Direction: higher = stronger binding
Shared flanks, not repeated: GGGAGUUCUACAGUCCGACGAUC … CAACAGAGGAUUGAGCAUCA
Strand	bound/input enrichment [ratio]
CGCCACAAGGAACUGUUUGCUUUGCAUCCAUCACCAGAUGAGGAAGAACCAAUCGAAAGGCUCAGUGUUCCUGAUGUGCCCAAAGAGCAUUUCGGACAAAGACUUCUUGUGAAAUGUUUA	0.108
CAGCAUGUCAUAGAAACCUUGAUUGGCAAAAAGCAACAGAUAUCUCUUGCAACACAAAUGGUUAGAAUGAUUUUGAAGAUUGAUGACAUUCGUAAGCCUGGAGAAUCUGAAGAAUGAAGA	0.374
AGGUGACCAGCAGGAGAGGUGCUGUCCUUCCCCCUAUUUUUACUGAUAUCUCUGUUGGGAUUUUAAAGGAAAUGACUGCUGGUAGAGCUAUGCAGAACCUACGCUCUCACUCUCCUCUGA	0.331
CCUCUGUUUAGAAGUGUAGGCAAUACUAUUGAUCCUGUCAUUCUUUUCCAAAAAAUGGGAGUAGGUAAACUUGAGAUGUAUGUGCUUAAUCCAGUCAAGAGCAGCAAGGAAAUGCAGUAU	1.03
GAUGUCAUUACUUCCUGUAUUGUCAUUUCUUCCUAUAAUUGAAAACUGAAAGACAUCUCAGAUUCCUUUUAAAAGAGUCUCUCCCUUGCCAUGUCUCUCCAUCCCUUUCCCUCCCCUUCC	0.721
ACCACCGGAGAAUUCCUGGGGCGCACCGCCAAGAGCUGGGGUUUGAUCUUGCUCUUCUACCUAGUUUUUUAUGGGUUCCUGGCUGCACUCUUCUCAUUCACGAUGUGGGUUAUGCUUCAG	0.478

Block 3
Target: Transcription factor SOX-2, HMG box (SOX2, Homo sapiens, UniProt P48431, residues 37-118)
Chain of UniProt P48431 (37-118, looked up): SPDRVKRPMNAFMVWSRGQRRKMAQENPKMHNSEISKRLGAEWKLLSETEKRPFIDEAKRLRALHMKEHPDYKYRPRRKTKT
Technique: protein-binding microarray
Molecule type: hairpin DNA
Sample: in vitro
Concentration: not given
Setting: whole hairpin DNA, median over replicate spots
Baseline: not given
Direction: higher = stronger binding
Shared flanks, not repeated: GCAGGCCC … GGGCCTGCACACTCTTTCCCTACACGAC
Strand	median fluorescence
ACAATGCGCCTCCTGGCGCATTGT	3050 a.u.
ACAAAGGGCCTCCTGGCCCTTTGT	2620 a.u.
ACAACAGGCCTCCTGGCCTGTTGT (5mC at 13)	2470 a.u.
ACAACGGGCCTCCTGGCCCGTTGT	2490 a.u.
ACAACGGGCCTCCTGGCCCGTTGT (5mC at 13 27)	2350 a.u.
ACCCTGGGCCTCCTGGCCCAGGGT	2360 a.u.
TCAATGGGCCTCCTGGCCCATTGA (5mC at 8)	3150 a.u.
ACAATCGGCCTCCTGGCCGATTGT	2970 a.u.
ACATTGGGCCTCCTGGCCCAATGT	2550 a.u.
ACAACCGGCCTCCTGGCCGGTTGT (5mC at 13)	2450 a.u.

Further values, each from its own experiment
Molecule	target	test	system	conditions	scale	quantity	value
PhoQ, residues 284 288 289 292 302 303 NLAAMI	PhoP, residues 12 14 15 18 19 SEGLL (Escherichia coli, UniProt P23836)	Sort-seq, item: YFP reporter	E. coli	PhoQ-PhoP variant library, added: 10 µM Mg2+	baseline: high Mg2+ state, higher = stronger signaling	fold induction	5.42

Some of these lines once more (block 1):
Change	normalised enrichment score
SNARRSLVFGGST [N8V]	0.418
SNFRRSLNFGGST [A3F]	0.0859
SNSRRSLNFGGST [A3S]	0.584
